# Experimental data of several laboratories.
# Every numbered part comes from another study and shows a few of its results, in no order.

# Sample 1 — technique: Spec-seq; molecule type: double-stranded DNA, one strand shown; medium: in vitro; concentration: not given; setting: whole probe, mean of replicates; reference: not given; reading: lower = stronger binding
# Target: POU, POU domain (Salpingoeca helianthica)
# Constant ends, left off below: GAGTCGTCTCGTCAGCAC … ATCCGTAGAGCACTCAGGTC
# Target sequence (chain): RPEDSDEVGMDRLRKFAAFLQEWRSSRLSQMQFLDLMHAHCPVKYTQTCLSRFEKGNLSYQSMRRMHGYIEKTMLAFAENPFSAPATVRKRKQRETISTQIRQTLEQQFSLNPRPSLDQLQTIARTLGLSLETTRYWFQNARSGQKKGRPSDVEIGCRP
Sequence,relative binding energy [ln ratio]
TGCATA,0.56
ATTGTA,0.141
GTGATA,0.491
ATAGAC,1.13
ATTTGC,0.716

# Sample 2 — technique: RNA Bind-n-Seq; molecule type: RNA; medium: in vitro; concentration: 1 µM; setting: whole 134-nt RNA, ends assumed; with: 150 mM KCl; reference: input library; reading: higher = stronger binding
# Target: Ras GTPase-activating protein-binding protein 1, RRM domain (G3BP1, Homo sapiens, UniProt Q13283)
# UniProt Q13283, sequence (whole entry, looked up): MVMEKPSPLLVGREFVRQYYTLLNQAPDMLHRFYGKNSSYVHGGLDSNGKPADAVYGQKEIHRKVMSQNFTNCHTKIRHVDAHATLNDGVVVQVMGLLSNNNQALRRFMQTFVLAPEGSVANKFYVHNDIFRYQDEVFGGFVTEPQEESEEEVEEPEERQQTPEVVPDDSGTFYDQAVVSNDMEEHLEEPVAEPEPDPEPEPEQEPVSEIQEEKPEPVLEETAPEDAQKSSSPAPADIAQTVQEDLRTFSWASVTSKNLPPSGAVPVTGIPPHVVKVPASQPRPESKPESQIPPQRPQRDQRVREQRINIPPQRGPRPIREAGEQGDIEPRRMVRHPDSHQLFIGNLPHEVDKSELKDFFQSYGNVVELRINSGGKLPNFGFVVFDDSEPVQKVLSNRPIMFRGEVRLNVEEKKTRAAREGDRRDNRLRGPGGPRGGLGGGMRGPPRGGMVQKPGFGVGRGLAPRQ
# Constant ends, left off below: GGGAGUUCUACAGUCCGACGAUC … UGGAAUUCUCGGGUGUCAAGG
Sequence,log2 enrichment
CCUGUGCUACACAUCGUAUGUACCGAAUCGGUUUUUUGGGGUUUUUUGGGGUUUUUUGGGAAAGUAUUAUGUUACGCCGUUCGGAUCUGC,-0.312
GCAGGAAGUAAAAACAAAUGGAAAUGCUUCGGAUAGUGGCAGGGGUGGGGGCUGCUAAGGAAAGGGUGGGAUGGGAGUGGGUAAAGAGUU,0.809
UCAAGUCCUGUGCUACACAUCGUAUGUACCGAAUCGGAAAGGAAAGGAAAAAGGAAAGUAUUAUGUUACGCCGUUCGGAUCUGCACUUCC,-0.119
CCUGUGCUACACAUCGUAUGUACCGAAUCGGUUUUUUUGGGUUUUUUUGGUUUUUUUGGGAAAGUAUUAUGUUACGCCGUUCGGAUCUGC,-0.173
AGUCCUGUGCUACACAUCGUAUGUACCGAAUCGGGUUUUUUUGGGUGGGUUUUUGGGAAAGUAUUAUGUUACGCCGUUCGGAUCUGCACU,0.535
AAGUCCUGUGCUACACAUCGUAUGUACCGAAUCGGGUUUUUGGGAAAAAGGGUGGGAAAGUAUUAUGUUACGCCGUUCGGAUCUGCACUU,0.599

# Sample 3 — technique: protein-binding microarray; molecule type: double-stranded DNA, one strand shown; medium: in vitro; concentration: 2540 nM top; setting: 60-bp whole probe; with: salmon DNA 0.4 mg/ml; reference: random background probes; reading: higher = stronger binding; constant ends, left off below: GCCTAGCAC … GTCTTGATTCGCTTGACGCTGCTG
# Target: Interferon regulatory factor 3, full length, phosphomimetic (IRF3, Homo sapiens, UniProt Q14653, residues 1-427, S386D/S396D/S398D/S402D/T404D/S405D)
# Target sequence (chain): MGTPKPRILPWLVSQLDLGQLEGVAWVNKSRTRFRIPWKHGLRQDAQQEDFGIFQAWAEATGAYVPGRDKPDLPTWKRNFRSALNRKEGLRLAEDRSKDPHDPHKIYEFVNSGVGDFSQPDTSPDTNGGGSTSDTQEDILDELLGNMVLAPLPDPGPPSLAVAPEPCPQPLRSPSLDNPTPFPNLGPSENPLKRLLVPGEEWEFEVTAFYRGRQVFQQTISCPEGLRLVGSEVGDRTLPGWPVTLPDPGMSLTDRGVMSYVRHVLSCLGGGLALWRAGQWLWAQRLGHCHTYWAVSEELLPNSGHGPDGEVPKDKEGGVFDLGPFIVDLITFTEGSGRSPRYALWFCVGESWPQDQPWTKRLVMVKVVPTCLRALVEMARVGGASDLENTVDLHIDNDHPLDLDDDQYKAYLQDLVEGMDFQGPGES
Sequence,fitted relative affinity [z-score]
GACTGTATCGACTTTCGGGACGTGCTA,1.31
GACGATATCGGGTATCGAGGCGTGCTA,0.137
ATATCTTATCCTATCAGTTTGTGCTAG,1.69
TTAGGTTTCGACCTTCGGTTAGTGCTA,2.93
GACGGTTTCGGGTTTCGCGACGTGCTA,5.84
TACGGTATCCTTCTCCTGACGTGCTAG,6.77

# Other studies, line by line
Substance,target,test,system,setting,how to read,quantity,result
"PhoQ, residues 284 288 289 292 302 303 SIHMAM","PhoP, residues 12 14 15 18 19 SYFRT (Escherichia coli, UniProt P23836)","Sort-seq, refers to: YFP reporter",E. coli,"PhoQ-PhoP variant library, with: 10 µM Mg2+","reference: high Mg2+ state, higher = stronger signaling",fold induction,2.85

# A few entries again (sample 1):
Sequence,relative binding energy [ln ratio]
TGCATA,0.56
ATTTGC,0.716
